Experimental data gathered from unrelated publications.
Parts stem from different laboratories: compare values within a part only.

Series 1 — method: universal PBM; form: double-stranded DNA, one strand shown; matrix: in vitro; concentration: not given; direction: higher = stronger binding
Target: Sal-like protein 4, full length isoform B (SALL4, Homo sapiens, UniProt Q9UJQ4-2, residues 1-616)
Setting: 8-mer, flanks averaged, mean of replicates
For `GCGCTGTA`, the E-score was -0.128.
For `AGAAAACA`, the E-score was 0.189.
The E-score of `CGGCCTTC` is reported as -0.256.
`ATCCAAAT` gave an E-score of 0.294.
`GAATAAGA` gave an E-score of 0.155.

Series 2 — method: RNA Bind-n-Seq; form: RNA; matrix: in vitro; concentration: 365 nM; reference: no-protein control; direction: higher = stronger binding
Target: RNA binding protein fox-1 homolog 2, RRM domain, GST-SBP tag (RBFOX2, Homo sapiens, UniProt O43251-10, residues 100-194)
Setting: natural RNA segment, single round, ends assumed
Target sequence (chain): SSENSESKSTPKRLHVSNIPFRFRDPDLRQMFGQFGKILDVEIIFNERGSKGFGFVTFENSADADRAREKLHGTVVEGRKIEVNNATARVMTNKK
Under “RBNS enrichment (R)”, `GGGAGUUCUACAGUCCGACGAUCUAGCAAACAAGUUAACAAAUGAUAAUAAAUGCAAUUCAGUUUUGGAUGUUGGUCCACAUUGUCAAGAAGUCAUGUAAUAAUAAUAAAUACAUAUUCUACCUGCUACUUGAUGGAAUUCUCGGGUGCCAA` is recorded as 0.385.
`GGGAGUUCUACAGUCCGACGAUCUGGCCUCUCACCCCCAAGGCUGUCUCUGGCCCUGCCGAGCCUAUGGGAGUCCCGGGACAGAGUGCCCACUCCCCUCUACUUGCUGCUCUGGGCCUCCCCACCUUUCCUGGUGGAAUUCUCGGGUGCCAA`: “RBNS enrichment (R)” 0.244.
For `GGGAGUUCUACAGUCCGACGAUCUUUUAACCAACUGUGCCUCCCUACAUAUGACUCAUAUGAAGAGGUGCACAGGAUGCUACAGCUGGCCAUCAGUGAGGGUUGCGAGGGCUUUGGCAUGCUCUGACCGCUCCUGGAAUUCUCGGGUGCCAA`, “RBNS enrichment (R)” read 2.36.
`GGGAGUUCUACAGUCCGACGAUCAAGGAGGGCUUCCCCUCUCUGCUGCGAGAGACUGGUCUGUGUGAAAUCCACUUCUGGGACAGGCAGUACUGUCUGCAGCGAUACCCCCAAUAAACGGAACUUUUUAACCCUGGAAUUCUCGGGUGCCAA` — result for “RBNS enrichment (R)”: 0.309.

Series 3 — method: aptamer microarray, sandwich; form: DNA with 2'F-ANA; matrix: in vitro; concentration: 200 nM; together with: Cy3 exosite-II aptamer, 400 nM; direction: higher = stronger binding; strand: GGTTGGTGTGGTTGG
Target: Prothrombin, mature alpha-thrombin (F2, Homo sapiens, UniProt P00734)
Setting: whole 15-mer aptamer, many near background
Under “mean fluorescence intensity”, `2'F-ANA at 3 6 7 12 13` is recorded as 1190 a.u.
For `2'F-ANA at 4 6 7 8 9 10 11 12`, “mean fluorescence intensity” read 93.1 a.u.
Under “mean fluorescence intensity”, `2'F-ANA at 3 4 5 9 12 13 14 15` is recorded as 51.6 a.u.
For `2'F-ANA at 2 4 5 6 12 13 14`, “mean fluorescence intensity” read 44.2 a.u.
For `2'F-ANA at 2 3 7 9 11 14 15`, “mean fluorescence intensity” read 378 a.u.

Other studies, line by line
`PhoQ, residues 284 288 289 292 302 303 NLCILV` gave a fold induction of 5.17 (PhoP, residues 12 14 15 18 19 LHSVW (Escherichia coli, UniProt P23836); Sort-seq, item: YFP reporter; E. coli; PhoQ-PhoP variant library, together with: 10 µM Mg2+; reference: high Mg2+ state, higher = stronger signaling).

A few entries again (series 2):
For `GGGAGUUCUACAGUCCGACGAUCUUUUAACCAACUGUGCCUCCCUACAUAUGACUCAUAUGAAGAGGUGCACAGGAUGCUACAGCUGGCCAUCAGUGAGGGUUGCGAGGGCUUUGGCAUGCUCUGACCGCUCCUGGAAUUCUCGGGUGCCAA`, “RBNS enrichment (R)” read 2.36.
